Results from different studies.
Compare with care: the assays were run in different laboratories. ± gives the spread as reported.
UCHL1: Ubiquitin carboxyl-terminal hydrolase isozyme L1 (UCHL1, Homo sapiens, UniProt P09936)
Sequence of UniProt P09936 (whole entry, looked up): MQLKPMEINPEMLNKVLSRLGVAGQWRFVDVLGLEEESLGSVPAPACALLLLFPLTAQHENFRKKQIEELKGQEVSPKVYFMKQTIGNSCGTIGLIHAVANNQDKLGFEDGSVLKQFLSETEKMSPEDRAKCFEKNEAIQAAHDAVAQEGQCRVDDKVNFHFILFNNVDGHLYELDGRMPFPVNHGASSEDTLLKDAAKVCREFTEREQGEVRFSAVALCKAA

`CCn1c(C(=O)N(C2CC2)C2CC2)cc2c3c(ncn3C)c(Nc3cc(C)n(C)n3)nc21` — result for “mean plasma concentration”: 1320 ng/mL (human cancer patients, plasma; oral, 200 mg single dose, 1 h, first-in-human study).
For `N#Cc1ccc2c(c1)[C@H]1CCCN(C(=O)c3ccc4[nH]cnc4c3)[C@H]1C2`, “mean ACTH level” read 6.9 pmol/L (human; 360 mg, day 7).
For `O=C(O)CCCCCCCCC(=O)O`, “mean daily plasma concentration” read 25.4 ± 5.3 nM (human, plasma; control).
For `CN1CC[C@@H](c2c(O)cc(O)c3c(=O)cc(-c4ccc(C(F)(F)F)cc4Cl)oc23)[C@@H]1CO`, “mean steady-state Ctrough” read greater than 450 ng/mL (human, plasma; oral, 200 mg once daily, cycle 1).
`CCCCCc1ccc(C(=O)Oc2ccc(C#N)c(F)c2)cc1` — result for “mean serum concentration”: 0.45 ng/mL (human mother-newborn pairs, female, maternal serum).
Under “mean daily plasma concentration”, `C[C@H](CCC(=O)NCCS(=O)(=O)O)[C@H]1CC[C@H]2[C@@H]3CC[C@@H]4C[C@H](OS(=O)(=O)O)CC[C@]4(C)[C@H]3CC[C@]12C` is recorded as 121 ± 31 nM (human, plasma; control).
Under “mean serum concentration”, `CCCC1CCC(c2ccc(OCC)c(F)c2F)CC1` (centres unmarked) is recorded as 2.27 ng/mL (human mother-newborn pairs, maternal serum).
For `Cn1cc(-c2cn3nccc3c(-c3cnn([C@]4(CC#N)C[C@@H](C#N)C4)c3)n2)cn1`, “mean residence time” read 10.6 h (healthy humans fasted, plasma; 400 mg single dose, geometric mean).
For `C[C@H](CCC(=O)NCCS(=O)(=O)O)[C@H]1CC[C@H]2[C@@H]3CC[C@@H]4C[C@H](O)CC[C@]4(C)[C@H]3C[C@H](O)[C@]12C`, “mean daily plasma concentration” read 53.3 ± 9.2 nM (human, plasma; control).
For `O=C(O)[C@H]1O[C@@H](Oc2ccc(/C=C/c3cc(O)cc(O)c3)cc2)[C@H](O)[C@@H](O)[C@@H]1O`, the mean concentration was 448 nM (human, plasma).
`C[C@H](CCC(=O)NCC(=O)O)[C@H]1CC[C@H]2[C@@H]3CC[C@@H]4C[C@H](OS(=O)(=O)O)CC[C@]4(C)[C@H]3CC[C@]12C`: “mean daily plasma concentration” 795 ± 184 nM (human, plasma; baseline).
The mean Ctrough of `COc1cc(C(=O)O)ccc1NC(=O)[C@@H]1N[C@@H](CC(C)(C)C)[C@](C#N)(c2ccc(Cl)cc2F)[C@H]1c1cccc(Cl)c1F` is reported as 2720 ng/mL (human, plasma; 200 mg, steady state, with: venetoclax 600 mg).
For `C[C@H](CCC(=O)NCC(=O)O)[C@H]1CC[C@H]2[C@@H]3[C@H](O)C[C@@H]4C[C@H](O[C@@H]5O[C@H](C(=O)O)[C@@H](O)[C@H](O)[C@H]5O)CC[C@]4(C)[C@H]3CC[C@]12C`, “mean daily plasma concentration” read 40 ± 8.3 nM (human, plasma; baseline).
Under “mean arterial pressure”, `C[C@@H](O)CCOC(=O)C[C@@H](C)O` is recorded as 83 mmHg (human; oral drink, dose not given, 180 min post dose, mean).
`O=C(O)[C@H]1O[C@@H](Oc2cc(O)cc(/C=C\c3ccc(O)cc3)c2)[C@H](O)[C@@H](O)[C@@H]1O` has a mean concentration of 478 nM (human, plasma).
For `CCc1ccc(-c2ccc(-c3cc(F)c(F)c(F)c3)c(F)c2)cc1`, “mean serum concentration” read 0.48 ng/mL (human mother-newborn pairs, maternal serum).
Under “mean daily plasma concentration”, `O=C(O)CCCCCCCCCCCCCCC(=O)O` is recorded as 161 ± 21 nM (human, plasma; oral, dose not given, control).
For `CCCCc1ccc(-c2ccc(C#N)cc2)cc1`, “mean serum concentration” read 0.25 ng/mL (human mother-newborn pairs, female fetuses, cord serum).
For `CCNCCCNC/C=C\CNCCCNCC`, “mean residence time” read 0.65 h (LC-MS/MS; human cancer patients, plasma; intravenous infusion 60 min, 200 mg, median, cycle 1).
`N#CC(=Cc1cccc(F)c1F)C(=O)NCc1ccccc1` gave a labelling of 40% (UCHL1; covalent, intact protein LC-MS; 12.5 µM).
Under “mean daily dermal uptake”, `Cc1ccc(O)c(-n2nc3ccccc3n2)c1` is recorded as 283 ng/kg body weight/day (exposure assessment; human, age 21-60 years; cream).
`CCCCOc1ccc([C@H]2CC[C@H](CCC)CC2)c(F)c1F`: “mean serum concentration” 7.63 ng/mL (human mother-newborn pairs, maternal serum).
Under “mean residence time”, `C=CC(=O)N(C)CCOc1c(N)ncnc1-c1cc(F)cc(NC(=O)c2ccc(C3CC3)cc2F)c1C` is recorded as 0.5 h (human, whole blood; oral, 1.5 mg, single ascending dose).
`CC=CC1CCC(C2CCC(CCC)CC2)CC1` (centres unmarked) — result for “mean serum concentration”: 1.31 ng/mL (human mother-newborn pairs, maternal serum).
For `N#Cc1c(Br)nc(-c2cccc(Cl)c2)c(C#N)c1N`, the labelling was 9.91% (UCHL1; covalent, intact protein LC-MS; 12.5 µM).
`O=C(O)CCCCCCCCCCC(=O)O`: “mean daily plasma concentration” 33.8 ± 4.5 nM (human, plasma; oral, dose not given, control).
`NC[C@@]1(CC(=O)O)[C@@H]2CC[C@H]3C[C@@H]2[C@@H]1C3`: “mean residence time” 9.37 h (human, moderate renal impairment, plasma; oral, 20 mg single dose, geometric mean).
For `CCCC1CCC(c2ccc(-c3ccc(CC)cc3)cc2)CC1` (centres unmarked), “mean serum concentration” read 0.3 ng/mL (human mother-newborn pairs, female fetuses, cord serum).
For `O=C([O-])CN(CCN(CC(=O)[O-])Cc1cc(CCC(=O)NCCCCCC(=O)NCCCC[C@H](NC(=O)N[C@@H](CCC(=O)O)C(=O)O)C(=O)O)ccc1[O-])Cc1cc(CCC(=O)O)ccc1[O-].[68Ga+3].[OH3+]`, the mean SUVmax was 22.7 ± 25.7 (PET/CT; human, primary prostate cancer, primary lesion).
Under “mean AUC(0-168 h)”, `Cc1ccc(Sc2ccccc2N2CCNCC2)c(C)c1` is recorded as 316 ng·h/mL (healthy male humans fed, plasma; oral, 10 mg single, high-fat breakfast).
`CCCOc1ccc(-c2ccc(C#N)cc2)cc1` — result for “mean serum concentration”: 0.77 ng/mL (human mother-newborn pairs, cord serum).
`C[C@H](CCC(=O)NCCS(=O)(=O)O)[C@H]1CC[C@H]2[C@@H]3[C@H](O)C[C@@H]4C[C@H](O)CC[C@]4(C)[C@H]3C[C@H](O)[C@]12C` — result for “mean daily plasma concentration”: 16.7 ± 1.5 nM (human, plasma; control).

Repeated from above:
`CCCOc1ccc(-c2ccc(C#N)cc2)cc1` — result for “mean serum concentration”: 0.77 ng/mL (human mother-newborn pairs, cord serum).
`C[C@H](CCC(=O)NCCS(=O)(=O)O)[C@H]1CC[C@H]2[C@@H]3[C@H](O)C[C@@H]4C[C@H](O)CC[C@]4(C)[C@H]3C[C@H](O)[C@]12C` — result for “mean daily plasma concentration”: 16.7 ± 1.5 nM (human, plasma; control).
